Measurements gathered from unrelated publications.
Compare with care: the assays were run in different laboratories. ± marks the error that the study gave.

For NC(CO)(CO)CCc1ccc(Sc2cccc(OCc3ccccc3)c2)cc1Cl, “pulse rate AUEC, median” read 18900 h×bpm (human, supine; oral, 3 mg, 0 to 312 h, alone).
O=C(c1cccnc1-c1ccncc1)N1CCC(O)(Cc2ccccc2)CC1 gave an AUCtau/dose of 4.3 ng·h/mL/mg (healthy Japanese adults, plasma; oral, 200 mg twice daily, day 14).
For Cc1cc(C)c(CNC(=O)c2cc(Cl)c3c(c2C)O[C@@](C)([C@H]2CC[C@H](N(C)C)CC2)O3)c(=O)[nH]1, “patients with TEAE” read 12.5% (item: Headache; human patients; oral, 200 mg once daily, 1 day onset day 14).
O=C(Nc1cnccc1Cl)N1CCN(Cc2ccc3c(c2)OC(F)(F)O3)CC1 has a dose-normalized AUC(0-tau) of 697 ng·h/mL (young women, plasma; oral, 100 mg once daily, day 10, normalized to 10 mg).
The median half-life of COc1ncc(-c2nc3c(n2C(C)C)[C@H](c2ccc(Cl)cc2)N(c2cc(Cl)cn(C)c2=O)C3=O)c(OC)n1 is reported as 6.9 h (human patients, plasma; oral, 15 mg, low-dose arm, cycle 2 day 1).
Cc1ccc(NS(=O)(=O)c2cc(C(=O)Nc3ccccc3C(=O)N3CCOCC3)ccc2Cl)c(C)c1 gave a Kd of greater than 100 µM (Cyclin-dependent kinase 2, with cyclin A (CDK2, Homo sapiens, UniProt P24941)).
For OC[C@H]1O[C@@H](c2ccc(Cl)c(Cc3ccc(O[C@H]4CCOC4)cc3)c2)[C@H](O)[C@@H](O)[C@@H]1O, “change in Chloride” read 1 mEq/L (Japanese type 1 diabetes patients, blood; 10 mg, day 28; relative to: baseline).
O=C(COc1ccc(Cl)cc1)NC12CC(c3nnc([C@H]4C[C@@H](OC(F)(F)F)C4)o3)(C1)C2 — result for “adverse event incidence”: 14.3% (item: postural dizziness; human; oral, 145 mg once daily, 14 days).
For N=C(N)NCCNC(=O)C1(Nc2ccccc2)CCN(Cc2ccccc2)CC1, the half-life was 0.2 h (Sprague-Dawley rats, both sexes, plasma; oral, 50 mg/kg, mean of both sexes).
C[Si](C)(C)O[Si](C)(C)C: “slope B, log KOA vs 1/T” 1390.
FC(F)(F)c1ccc(CNc2ccc(Cc3c[nH]c4ncc(Cl)cc34)cn2)cn1: “treatment-related adverse events” 10% (item: Anemia; patients with advanced solid tumours, non-TGCT cohort; oral, 1000 mg/day, any grade).
CNCc1ccc(-c2[nH]c3cc(F)cc4c3c2CCNC4=O)cc1 gave a dizziness incidence of 22.2% (human patients; oral, 480 mg twice daily, all grades).
With Cc1c(-c2ccc(N3CCc4cccc(C(=O)Nc5nc6ccccc6s5)c4C3)nc2C(=O)O)cnn1CC12CC3(C)CC(C)(C1)CC(OCCNCC[C@H](O)CO)(C3)C2 the plasma concentration was 7 ng/mL (anaesthetized male beagle dog; iv infusion, 0.1 mg/kg/min, 30 min).
With C[C@H]1CN(C(=O)CC#N)[C@]12CCN(c1ncnc3[nH]ccc13)C2 the IC80 was 0.057 µg/mL (IL-4 secretion; human whole blood; blood/plasma ratio corrected).
Under “diastolic blood pressure change”, CCN1/C(=C/C(C)=O)Sc2ccc(F)cc21 is recorded as 99.4 ± 3.5% (cynomolgus monkey; oral, 30 mg/kg, 4 h post-dose; relative to: pre-dose).
Under “subjects with increased creatinine TEAE”, O=C(O)CCC(=O)O.[2H]C([2H])([2H])Oc1cc(C)c2[nH]ccc2c1CN1CC[C@@H](C2CC2)C[C@H]1c1ccc(C(=O)O)cc1 is recorded as 0% (multiple ascending dose; healthy Chinese subjects; 50 mg twice daily).
Cc1cccc(CNC(=O)c2cn(CCNC(=O)c3ccccc3Sc3c([N+](=O)[O-])ncn3C)c3cc4c(cc3c2=O)OCO4)n1 gave a remaining compound of 93.9% (Beagle dog, whole blood; 1 µM, 0.5 h).
Under “patients with adverse event”, Cc1cc(NC2CCN(C(=O)OC3CCN(C(=O)/C=C/CN(C)C)C3)CC2)n2ncc(C(C)C)c2n1 (centres unmarked) is recorded as 0% (Phase I dose escalation CTCAE v4.0, item: pain in extremity; patients with advanced solid tumours; dose not given, TIW dosing grade 3 or higher).
For CCCn1cc(C)c2c(=O)[nH]c(-c3cc(S(=O)(=O)N4CCN(CC)CC4)ccc3OCC)nc21, the feeling hot was 16.7% (human; concentration not given, treatment-emergent adverse event).
Under “patients with adverse event”, CNC(=O)c1ccc(-c2cnc3ncc(Cc4ccc5ncccc5c4)n3n2)cc1F is recorded as 44% (item: Nausea, all grades; cancer patients; oral, 600 mg twice daily, other expansion cohort, any causality).
O=C(O)CCCCCCCCC(=O)O: “relative peak deviation” 56.1 ± 9.4% (human, plasma; endogenous baseline diurnal; relative to: daily mean concentration).
NC1(C(=O)N[C@@H](CCO)c2ccc(Cl)cc2)CCN(c2ncnc3[nH]ccc23)CC1: “geometric mean Cmax” 666 ng/mL (human patients, plasma; 240 mg twice daily, day 8, continuous dosing).
With Cc1ccc(Sc2ccccc2N2CCNCC2)c(C)c1 the eczema incidence was 0% (healthy adult men; oral, 20 mg single dose, treatment-emergent adverse events).
CN(C(=O)n1cnc(-c2cccnc2)c1)C1CCCCC1 has a concentration of 40.3 ± 5.7 ng/g (Wistar rat, hippocampus; oral, 10 mg/kg of BIA 10-2474, 4 h, single dose).
For Cc1ccc([C@@H]2O[C@H](CO)[C@@H](O)[C@H](O)[C@H]2O)cc1Cc1ccc(-c2ccc(F)cc2)s1, “urinary magnesium excretion change” read 16.2 mg (Japanese type 2 diabetes patients; 25 mg, day 16, 24 h urine collection; relative to: baseline).
CCO[C@H]1CCN(Cc2c(OC)cc(C)c3[nH]ccc23)[C@H](c2ccc(C(=O)O)cc2)C1 has an unbound Tmax of 2.25 h (healthy volunteers, plasma; oral, 200 mg single dose, median).
For NS(=O)(=O)c1cc(C(=O)O)c(NCc2ccco2)cc1Cl, “subjects with adverse event” read 0% (item: general and administration site disorders; healthy men; oral, 8 days, treatment-emergent, crossover trial).
The non-renal clearance of C[C@@H](N)c1cc(Cl)ccc1Cn1c(=S)[nH]c(=O)c2[nH]ccc21 is reported as 131 mL/min (human, both sexes, severe renal impairment; oral, 2.5 mg single dose, geometric mean).
NC1(C(=O)N[C@@H](CCO)c2ccc(Cl)cc2)CCN(c2nc[nH]c3nccc2-3)CC1 — result for “incidence of Hyper-glycaemia”: 0% (metastatic CRPC patients; 320 mg b.i.d., grade 3 to 4, treatment-related, with: enzalutamide 160 mg daily).
For Cl.[2H]C([2H])([2H])CC(=O)c1cnc(NC(=O)C2CC2)cc1Nc1cccc(-c2ncn(C([2H])([2H])[2H])n2)c1OC, the Tmax was 1.62 h (median; human; oral, 20 mg twice daily, day 7, fed, liquid, multiple dose).
Under “subjects with TEAE”, CC(C)(C(=O)N1CCOc2c(C#N)cncc2C1)C(F)F is recorded as 0% (item: vascular disorders; healthy humans, both sexes; oral, 40 mg single dose).
For COCCOc1cnc2ccn([C@H](C)c3nnc4c(F)cc(-c5cnn(C)c5)cn34)c(=O)c2c1, the Ctrough was 1860 ng/mL (patients, plasma; oral, 250 mg twice daily, day 1 predose, 500 per day).
Under “treatment-emergent adverse events”, O=C(Nc1nc2cccc(-c3ccc(CN4CCS(=O)(=O)CC4)cc3)n2n1)C1CC1 is recorded as 0% (item: metabolism and nutrition disorders; human rheumatoid arthritis patients; oral, 300 mg once daily, 4 weeks, regardless of relatedness).
CCN1CCN(Cc2ccc(NC(=O)c3ccc(C)c(NC(=O)c4cncc(-c5cccs5)c4)c3)cc2C(F)(F)F)CC1 gave a dose-normalised AUC of 0.33 kg·µg·h/mL/mg (C57BL/6 mice, epithelial lining fluid; intraperitoneal, 20 mg/kg).
For O=C(/C=C/CCc1ccc(O)cc1)/C=C/c1ccc(O)cc1, the body weight was 19.5 ± 1.36 g (nude mouse MCF7 xenograft; 10 mg/kg, day 4).
Under “adverse event Stomatitis”, Cc1cc(Nc2ccc(S(F)(F)(F)(F)F)cc2)n2nc(C(C)(F)F)nc2n1 is recorded as 0% (Plasmodium falciparum malaria patients; oral, 400 mg).
The Kd of O=S(=O)(NCc1ccccn1)c1cc(Cl)c(Cl)cc1Cl is reported as greater than 100 µM (CDK2 (Homo sapiens, UniProt P24941); binding).
For COc1cccc(OC)c1-c1cc(C(=O)NC2(C(=O)O)C3CC4CC(C3)CC2C4)nn1-c1ccc(C(=O)N(C)CCCN(C)CCCN(C)C(=O)CN2CCN(CC(=O)[O-])CCN(CC(=O)[O-])CCN(CC(=O)[O-])CC2)cc1C(C)C.[177Lu+3] (centres unmarked), the tissue uptake was 3.6 %ID/g (mouse HT-29 xenograft, large intestine; 4 h post injection, biodistribution).
CCc1cc(C(=O)NC)c2nccc(N3CCc4c(cc(Cn5ccnc5)cc4-c4cn(C)nc4C(F)(F)F)C3=O)c2c1 — result for “serum RBC change”: -0.89% (Sprague Dawley rats; oral, 50 mg/kg once daily, 7 days; relative to: vehicle).
N#Cc1cccc(-c2ccc3ncc(-c4cc(F)cc(F)c4)c(N4CCC(N)CC4)c3c2)c1O has a radioactivity recovered of 1.3% (healthy male, urine; oral, 20 mg, 72 h, 14C-labelled; relative to: dose).
With CC(C)Oc1c(NC(=O)c2ccc(NC(=O)[C@H](CC(N)=O)NC(=O)c3ccc(NC(=O)c4ccc(C#N)cc4)cc3)cc2)ccc(C(=O)N/N=C/c2ccc(C(=O)O)cc2)c1O the thermal half-life was 19.6 h (absorbance; DMSO; 30 °C, PSS to ground state relaxation).

Excerpt of the above:
Cc1cccc(CNC(=O)c2cn(CCNC(=O)c3ccccc3Sc3c([N+](=O)[O-])ncn3C)c3cc4c(cc3c2=O)OCO4)n1 gave a remaining compound of 93.9% (Beagle dog, whole blood; 1 µM, 0.5 h).
Under “patients with adverse event”, Cc1cc(NC2CCN(C(=O)OC3CCN(C(=O)/C=C/CN(C)C)C3)CC2)n2ncc(C(C)C)c2n1 (centres unmarked) is recorded as 0% (Phase I dose escalation CTCAE v4.0, item: pain in extremity; patients with advanced solid tumours; dose not given, TIW dosing grade 3 or higher).
For CCCn1cc(C)c2c(=O)[nH]c(-c3cc(S(=O)(=O)N4CCN(CC)CC4)ccc3OCC)nc21, the feeling hot was 16.7% (human; concentration not given, treatment-emergent adverse event).
Under “patients with adverse event”, CNC(=O)c1ccc(-c2cnc3ncc(Cc4ccc5ncccc5c4)n3n2)cc1F is recorded as 44% (item: Nausea, all grades; cancer patients; oral, 600 mg twice daily, other expansion cohort, any causality).
O=C(O)CCCCCCCCC(=O)O: “relative peak deviation” 56.1 ± 9.4% (human, plasma; endogenous baseline diurnal; relative to: daily mean concentration).
NC1(C(=O)N[C@@H](CCO)c2ccc(Cl)cc2)CCN(c2ncnc3[nH]ccc23)CC1: “geometric mean Cmax” 666 ng/mL (human patients, plasma; 240 mg twice daily, day 8, continuous dosing).
